Results pooled from the literature.
± gives the spread as reported.
ALB: Albumin (ALB, Bos taurus, UniProt P02769)
Chain of UniProt P02769 (whole entry, looked up): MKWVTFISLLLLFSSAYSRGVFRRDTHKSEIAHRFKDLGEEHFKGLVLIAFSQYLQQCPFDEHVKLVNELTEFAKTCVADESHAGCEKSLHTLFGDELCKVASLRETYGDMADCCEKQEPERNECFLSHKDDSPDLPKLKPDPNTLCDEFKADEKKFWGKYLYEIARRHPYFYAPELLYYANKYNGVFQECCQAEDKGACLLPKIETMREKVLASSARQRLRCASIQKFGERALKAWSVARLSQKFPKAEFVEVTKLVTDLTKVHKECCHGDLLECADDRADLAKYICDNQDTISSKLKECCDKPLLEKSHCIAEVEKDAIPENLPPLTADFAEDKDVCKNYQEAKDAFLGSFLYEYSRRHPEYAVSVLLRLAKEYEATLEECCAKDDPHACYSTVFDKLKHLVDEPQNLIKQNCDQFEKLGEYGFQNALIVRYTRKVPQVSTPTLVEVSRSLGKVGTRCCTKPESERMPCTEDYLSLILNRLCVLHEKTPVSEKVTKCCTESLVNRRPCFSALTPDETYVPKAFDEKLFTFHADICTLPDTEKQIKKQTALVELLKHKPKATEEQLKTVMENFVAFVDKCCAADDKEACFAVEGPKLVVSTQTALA
Chain of UniProt P41765 (whole entry, looked up): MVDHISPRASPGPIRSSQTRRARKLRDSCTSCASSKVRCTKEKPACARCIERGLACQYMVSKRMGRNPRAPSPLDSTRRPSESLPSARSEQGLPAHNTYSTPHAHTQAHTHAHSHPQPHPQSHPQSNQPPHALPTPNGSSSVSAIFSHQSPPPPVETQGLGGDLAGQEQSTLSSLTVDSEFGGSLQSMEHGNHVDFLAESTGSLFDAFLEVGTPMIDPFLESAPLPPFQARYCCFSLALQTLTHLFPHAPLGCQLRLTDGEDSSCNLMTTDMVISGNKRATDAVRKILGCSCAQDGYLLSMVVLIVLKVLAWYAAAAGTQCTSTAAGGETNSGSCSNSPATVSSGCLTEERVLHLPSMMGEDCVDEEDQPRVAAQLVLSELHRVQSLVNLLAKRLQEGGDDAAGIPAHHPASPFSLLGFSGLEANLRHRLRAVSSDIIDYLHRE

Molecule = CCCOC(=O)N1c2cc(CNC)ccc2[C@H](NC(=O)C(=O)Nc2ccc(Cl)c(F)c2)[C@H]1CNC(=N)N; target or system = Human immunodeficiency virus 1; assay = viral infection, Env pseudovirus; system = TZM-bl, 6244_13_B5_4576 clade B T/F; endpoint = IC50; result = 552 nM
Molecule = CN1CCN(c2ccc3[nH]c(-c4ccc5[nH]c(-c6ccc(OCCCCNC(=O)c7cccc8c7C(=O)OC87c8ccc(N(C)C)cc8[Si](C)(C)c8cc(N(C)C)ccc87)cc6)nc5c4)nc3c2)CC1; target or system = ALB; system = PBS; conditions = 1 µM, 1 h, with: 25 mg/mL albumin; endpoint = fluorescence quantum yield; result = 0.027 ± 0.003
Molecule = TCAGATATTTCGGTCTCGCAGGAAAGAT (dsDNA); target or system = aflR 15-79 (Aspergillus flavus, UniProt P41765); assay = EMSA; system = double-stranded DNA, one strand shown; endpoint = binding; result = no binding
Molecule = C=C1C[C@](OC)([C@H](O)C(=O)NC[C@@H]2C[C@@H](OC)C(C)(C)[C@@H](C[C@@H](COC)OC)O2)O[C@H](C)[C@@H]1C; target or system = B16; assay = cell viability, sulforhodamine B; conditions = 72 h, 37 °C, with: 100 µM H2O2; endpoint = IC50; result = 1.2 ± 0.1 nM
Molecule = CC(C)C[C@H](NC(=O)OCc1ccccc1)C(=O)N[C@@H](C[C@@H]1CCNC1=O)C(O)S(=O)(=O)[O-].[Na+] (some centres unmarked); target or system = Replicase polyprotein 1ab, main protease (rep, Porcine epidemic diarrhea virus, UniProt P0C6Y4); assay = enzyme activity, inhibitor, FRET; conditions = 10 µM; endpoint = inhibition; result = 135%
Molecule = CNCc1ccc2c(c1)C[C@H](CNC(=N)N)[C@H]2NC(=O)C(=O)Nc1ccc(Cl)c(F)c1; target or system = Human immunodeficiency virus 1; assay = viral infection, Env pseudovirus; system = TZM-bl, 6244_13_B5_4576 clade B T/F; endpoint = IC80; result = 15000 nM
Molecule = CN1CCN(c2ccc3[nH]c(-c4ccc5[nH]c(-c6ccc(OCCCCNC(=O)c7ccc8c(c7)C7(OC8=O)c8ccc(N(C)C)cc8[Si](C)(C)c8cc(N(C)C)ccc87)cc6)nc5c4)nc3c2)CC1; target or system = ALB; system = PBS; conditions = 1 µM, 1 h, with: 25 mg/mL albumin; endpoint = fluorescence quantum yield; result = 0.047 ± 0.002
Molecule = CCCCCCCCCCCCCCCC(=O)N[C@@H](CCC(=O)NCCOCCOCCC(=O)NCCOCCOCCC(=O)NCCCC[C@H](NC(=O)[C@H](CC(=O)O)NC(=O)[C@H](CC(C)C)NC(=O)[C@H](Cc1ccc(O)cc1)NC(=O)[C@H](CCCCN)NC(=O)[C@H](CO)NC(=O)[C@H](Cc1ccc(O)cc1)NC(=O)[C@H](CC(=O)O)NC(=O)[C@H](CO)NC(=O)[C@@H](NC(=O)[C@H](Cc1ccccc1)NC(=O)[C@@H](NC(=O)CNC(=O)[C@H](CCC(N)=O)NC(=O)[C@@H](CO)NC(=O)[C@@H](N)Cc1c[nH]cn1)[C@@H](C)O)[C@@H](C)O)C(=O)N[C@@H](CCCNC(=N)N)C(=O)N[C@@H](CCCNC(=N)N)C(=O)N[C@@H](C)C(=O)N[C@@H](CCC(N)=O)C(=O)N[C@@H](CC(=O)O)C(=O)N[C@@H](Cc1ccccc1)C(=O)N[C@H](C(=O)N[C@@H](CCC(N)=O)C(=O)N[C@@H](Cc1c[nH]c2ccccc12)C(=O)N[C@@H](CC(C)C)C(=O)N[C@@H](CC(C)C)C(=O)N[C@@H](CC(N)=O)C(=O)N[C@H](C(=O)NCC(=O)NCC(=O)N1CCC[C@H]1C(=O)N[C@@H](CO)C(=O)N[C@@H](CO)C(=O)NCC(=O)N[C@@H](C)C(=O)N1CCC[C@H]1C(=O)N1CCC[C@H]1C(=O)N1CCC[C@H]1C(=O)N[C@@H](CO)C(N)=O)[C@@H](C)O)C(C)C)C(=O)O; system = rhesus monkey, male, plasma; conditions = subcutaneous, 20 µg/kg, day 1, toxicokinetics, mean; endpoint = Cmax; result = 33.9 ng/mL

Excerpt of the above:
Molecule = CCCOC(=O)N1c2cc(CNC)ccc2[C@H](NC(=O)C(=O)Nc2ccc(Cl)c(F)c2)[C@H]1CNC(=N)N; target or system = Human immunodeficiency virus 1; assay = viral infection, Env pseudovirus; system = TZM-bl, 6244_13_B5_4576 clade B T/F; endpoint = IC50; result = 552 nM
